# Experimental data gathered from unrelated publications.
# A part holds a random share of what one study measured.

# Set 1
# Target: Sal-like protein 4, full length isoform A (SALL4, Homo sapiens, UniProt Q9UJQ4, residues 1-1053)
# Chain of UniProt Q9UJQ4 (whole entry, looked up): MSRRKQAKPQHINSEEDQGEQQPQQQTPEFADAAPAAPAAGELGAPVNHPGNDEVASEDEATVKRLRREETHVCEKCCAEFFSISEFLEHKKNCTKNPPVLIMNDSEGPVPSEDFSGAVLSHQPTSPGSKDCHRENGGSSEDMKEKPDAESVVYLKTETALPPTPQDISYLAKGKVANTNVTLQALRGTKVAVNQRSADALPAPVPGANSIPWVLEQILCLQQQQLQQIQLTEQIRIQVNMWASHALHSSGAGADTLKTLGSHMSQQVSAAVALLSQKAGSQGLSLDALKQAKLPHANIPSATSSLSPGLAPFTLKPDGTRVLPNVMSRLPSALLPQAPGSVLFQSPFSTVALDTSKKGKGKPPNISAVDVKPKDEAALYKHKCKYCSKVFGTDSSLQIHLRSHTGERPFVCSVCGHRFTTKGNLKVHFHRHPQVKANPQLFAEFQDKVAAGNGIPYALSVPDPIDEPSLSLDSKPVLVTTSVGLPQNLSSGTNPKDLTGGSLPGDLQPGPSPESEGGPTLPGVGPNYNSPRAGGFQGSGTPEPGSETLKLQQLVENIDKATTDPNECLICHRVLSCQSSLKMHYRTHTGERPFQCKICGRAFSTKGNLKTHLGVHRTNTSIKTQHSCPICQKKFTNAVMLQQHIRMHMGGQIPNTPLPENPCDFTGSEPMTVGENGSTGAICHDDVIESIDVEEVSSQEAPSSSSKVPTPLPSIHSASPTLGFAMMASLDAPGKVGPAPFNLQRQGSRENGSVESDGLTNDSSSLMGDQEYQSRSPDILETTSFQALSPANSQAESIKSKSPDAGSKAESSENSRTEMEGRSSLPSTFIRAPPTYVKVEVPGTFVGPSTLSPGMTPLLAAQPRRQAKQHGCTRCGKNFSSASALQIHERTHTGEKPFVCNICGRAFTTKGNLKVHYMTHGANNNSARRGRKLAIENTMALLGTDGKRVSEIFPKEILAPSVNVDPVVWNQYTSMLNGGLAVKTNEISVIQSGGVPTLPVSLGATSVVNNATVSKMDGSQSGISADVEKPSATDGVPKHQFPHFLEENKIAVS
# Technique: universal PBM
# Molecule type: double-stranded DNA, one strand shown
# Sample: in vitro
# Concentration: 600 nM
# Setting: 8-mer, flanks averaged, mean of replicates
# Reading: higher = stronger binding
Oligonucleotide,E-score
ACGGCCTG,-0.295
CTCAGGTC,-0.201
TCCTAACA,0.188
CCTGTGAA,0.0166
CCCTGTGC,-0.213
CGGATGAA,0.101
AAGTACAT,0.164
CGCGTCTC,-0.134
GATTAGGA,0.102
ATATTCTC,0.303
GTCATGAA,0.0401
CGCGGTTC,-0.276
ACTAGGGA,-0.0405
CAGTTAGG,-0.0703
AAGTTATC,0.15
AATGCGTG,0.0894
CGGCCGGC,-0.398
ACAGGCAT,-0.00936
CGACCGTC,-0.308
CCAGTAGC,-0.166
AGTCTAGA,0.105
TAAATACA,0.34
AACCTTCT,-0.108
CGGTGCCA,-0.37
ATGGCGGA,-0.168

# Set 2
# Target: Prothrombin, mature alpha-thrombin (F2, Homo sapiens, UniProt P00734)
# Technique: aptamer microarray, sandwich
# Molecule type: DNA with 2'F-ANA
# Sample: in vitro
# Concentration: 200 nM
# Setting: whole 15-mer aptamer, many near background
# With: Cy3 exosite-II aptamer, 400 nM
# Reading: higher = stronger binding
# Oligonucleotide: GGTTGGTGTGGTTGG
Modification,mean fluorescence intensity [a.u.]
2'F-ANA at 1 2 4 5 6 7 11 12 13 14 15,105
2'F-ANA at 2 3 4 5 7 11 14,49
2'F-ANA at 6 7 9 10 13 15,137
2'F-ANA at 1 5 7 8 10 11 13 14,46.4
2'F-ANA at 1 2 4 5 6 7 10 13 15,50.3
2'F-ANA at 1 3 7 8 15,405
2'F-ANA at 5 6 7 8 12,198
2'F-ANA at 5 7 8 11 12 13 15,102
2'F-ANA at 1 2 3 4 7 10 14,51.5
2'F-ANA at 3 7 9 10 12 15,641
2'F-ANA at 4 6 8 10 11 13,61.6
2'F-ANA at 6 10 11 12 13,176
2'F-ANA at 8 13 14,178
2'F-ANA at 1 2 3 4 6 8 10 11 13 15,123
2'F-ANA at 1 2 4 5 6 12 13 14 15,50
2'F-ANA at 1 2 3 4 5 6 8 9 11,86.4
2'F-ANA at 3 6 8 9 13 14 15,473
2'F-ANA at 4 5 6 11 12 13 14 15,50.1
2'F-ANA at 1 2 3 6 7 9 12 13,287
2'F-ANA at 1 2 5 6 13 15,50.8
2'F-ANA at 2 3 4 6 7 8 9 10 13,204
2'F-ANA at 3 5 7 10 11 12 15,64.1
2'F-ANA at 3 4 6 9 13 15,374
2'F-ANA at 1 2 3 4 5 9 10 11 12 13,51.2

# Set 3
# Target: Ras GTPase-activating protein-binding protein 1, full length (G3BP1, Homo sapiens, UniProt Q13283)
# Chain of UniProt Q13283 (whole entry, looked up): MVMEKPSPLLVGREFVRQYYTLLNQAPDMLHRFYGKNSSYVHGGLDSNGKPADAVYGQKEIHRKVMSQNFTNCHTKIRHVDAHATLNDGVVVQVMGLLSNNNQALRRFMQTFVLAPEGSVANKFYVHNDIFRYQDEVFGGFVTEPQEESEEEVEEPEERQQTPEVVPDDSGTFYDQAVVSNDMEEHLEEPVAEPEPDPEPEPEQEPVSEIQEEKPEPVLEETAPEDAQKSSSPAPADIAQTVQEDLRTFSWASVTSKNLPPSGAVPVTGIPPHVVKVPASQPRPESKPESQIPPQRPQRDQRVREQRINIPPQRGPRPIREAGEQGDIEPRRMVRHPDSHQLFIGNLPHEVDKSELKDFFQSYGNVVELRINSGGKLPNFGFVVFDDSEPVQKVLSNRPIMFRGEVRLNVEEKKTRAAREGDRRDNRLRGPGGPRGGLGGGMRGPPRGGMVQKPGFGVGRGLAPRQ
# Technique: RNA Bind-n-Seq
# Molecule type: RNA
# Sample: in vitro
# Concentration: 200 nM
# Setting: whole 134-nt RNA, ends assumed
# With: 150 mM LiCl
# Baseline: input library
# Reading: higher = stronger binding
# All molecules: 7-deaza-guanosine replaces G
# Constant ends, left off below: GGGAGUUCUACAGUCCGACGAUC … UGGAAUUCUCGGGUGUCAAGG
Oligonucleotide,log2 enrichment
UCCUGUGCUACACAUCGUAUGUACCGAAUCGGGGCCCCCGGGCCCCCGGGGCCCCCGGGAAAGUAUUAUGUUACGCCGUUCGGAUCUGCA,-1.8
UGGCCCUGGUGGCAUGCGGGGAGGAAGAGGUGCCCUCAUGGAUCGUGGUGGUCCCGGUGGAAUGUUCAGAGGUGGCCGUGGUGGAGACAG,-0.767
AGUCCUGUGCUACACAUCGUAUGUACCGAAUCGGGAAAGGGAAAAAAAGGGAAAGGGAAAGUAUUAUGUUACGCCGUUCGGAUCUGCACU,-0.649
UGGCUUCGAAGUACAGUCUUUGCAGGAUGCAGGAAAUCAGCUUGGUAUGGAGGAUACAUCUCUGAGCUCUGGAAUGCUCACCCAGAACAC,-2.12
UUUAGCCUGUGGAAUGAUAGCAGUAGGGUCCUGCAAUGGAGAUGUAACUUCCACUAUCCUUCAGACCAUCAUGGAGAAGUCAGAGACUGA,-0.849
UGGCCCUGGUGGCAUGCGGGGAGGAAGAGGUGGCCUCAUGGAUCGUGGUGGUCCCGGUGAAAUGUUCAGAGGUGGCCGUGGUGGAGACAG,0.0119
AGUCCUGUGCUACACAUCGUAUGUACCGAAUCGGGGAGGGGUGGGGUUUUUUUGGGGAAAGUAUUAUGUUACGCCGUUCGGAUCUGCACU,0.379
GUCCUGUGCUACACAUCGUAUGUACCGAAUCGGGGUUUUGGGGUUUUGGGUUUUGGGGAAAGUAUUAUGUUACGCCGUUCGGAUCUGCAC,-0.00271
UGGCCCUGGUGGCAUGCGGGGAGGAAGAGGUGGCCUGAUGGAUCGUGGUGGUCCCGGUGGAAUGUUCAGAGGUGGCCGUGGUGGAGACAG,0.645
ACCAUGCAGGUGGGCAUCUUUGGGAAGUGGGGCAAGGGGGGGAUAGGGAGGGGGGUAACACUUAGGGAACAGGUGGUCCCAGGUCGUUUC,0.0629
GUCCUGUGCUACACAUCGUAUGUACCGAAUCGGGGUUUGGGGAAAAAGGGGAAAGGGGAAAGUAUUAUGUUACGCCGUUCGGAUCUGCAC,0.205

# Set 4
# Target: Histone acetyltransferase KAT6A, both winged helices, GST fusion (KAT6A, Homo sapiens, UniProt Q92794, residues 1-181)
# Technique: protein binding microarray
# Molecule type: double-stranded DNA, one strand shown
# Sample: in vitro
# Concentration: not given
# Setting: 8-mer, flanks averaged, mean of 2 arrays, mostly near background
# Baseline: not given
# Reading: higher = stronger binding
# Construct (chain): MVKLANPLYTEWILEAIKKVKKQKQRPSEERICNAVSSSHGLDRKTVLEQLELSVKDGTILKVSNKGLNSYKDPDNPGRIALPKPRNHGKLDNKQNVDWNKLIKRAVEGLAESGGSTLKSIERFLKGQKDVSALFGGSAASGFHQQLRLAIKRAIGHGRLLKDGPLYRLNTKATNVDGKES
Oligonucleotide,E-score
AACCGAAC,-0.121
AAGGCGGG,0.17
CAAGAAAC,-0.0799
CCGTCAGG,0.104
ATTCGCGG,0.282
AATATCTA,-0.189
CGTCCACG,0.195
ACCCTGAA,-0.173
ACTCAGGG,-0.178
GCACTAGC,0.104
GGTGAGAA,-0.101
TACGATGA,-0.048
ATTTGTGC,0.0325
CTACAGTA,-0.101
CTATAGTA,0.0674
ATACTCAT,-0.217
CTTGCTTC,-0.203
AGGCCTCC,-0.148
ACCTTCTC,-0.208
AGGTCGCA,0.0891
AACGCGGG,0.269
AGGATCCG,0.0594
GGCGCCAC,0.275
CCTTTCAA,-0.00815
AGACCTCT,-0.0869

# Set 5
# Target: Centromere-binding protein 1, full length, His-tagged (CBF1, Saccharomyces cerevisiae, UniProt P17106, residues 1-351)
# Chain of UniProt P17106 (whole entry, looked up): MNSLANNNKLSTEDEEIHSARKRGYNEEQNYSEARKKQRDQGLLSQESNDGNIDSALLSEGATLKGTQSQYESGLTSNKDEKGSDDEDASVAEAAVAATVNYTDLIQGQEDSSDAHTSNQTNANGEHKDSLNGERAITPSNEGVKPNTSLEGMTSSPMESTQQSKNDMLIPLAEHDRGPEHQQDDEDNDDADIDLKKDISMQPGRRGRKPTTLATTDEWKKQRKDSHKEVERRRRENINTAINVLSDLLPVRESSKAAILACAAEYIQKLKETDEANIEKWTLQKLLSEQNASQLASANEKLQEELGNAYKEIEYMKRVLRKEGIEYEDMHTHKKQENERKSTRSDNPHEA
# Technique: competition protein-binding microarray
# Molecule type: double-stranded DNA, one strand shown
# Sample: in vitro
# Concentration: 2 µM
# Setting: whole 60-bp probe, lowest competitor level
# With: Pho4 competitor, 0.05 µM
# Reading: higher = stronger binding
# Constant ends, left off below: … GTCTTGATTCGCTTGACGCTGCTG
Oligonucleotide,fluorescence intensity
CTAACGAAGGTTTGTCACACGACTTACAAGCCAAGT,126 a.u.
GCTACGCATTCCCTTCGCGTGAGACCATCAAATCTC,74.4 a.u.
AAAGCGGTAATTTGTCCGGTGGGTGCAGATATCTAT,63.3 a.u.
TGCGCAACAACTTGCAAGGTGGGTGTATGTCTAGAA,71.2 a.u.
CAAAGAAACCAAAGGGTCGTGCTTTCAAGAGATTAT,91.6 a.u.
ATGCGAGACTTGGATAACGTGTTGAGCATCGAAATA,103 a.u.
CGGGGTTAAGTTTGCGCCGTGGGTGGCTTGCAGCAG,71.3 a.u.
AATTTTGGAGCTTGACATGTGGCCTCAATTGCATAA,153 a.u.
CTTCTGTAAATTTGTTAGGTGGGTGGACGCGCCCCG,96.8 a.u.
CGTCCTAGTGATTGCTCAGTGGGTGCCATGAGGAAG,78.3 a.u.
TGAAGAACAGAGCTGCTCGTGACGGAAGAGCTCAAA,139 a.u.
CGTCCTAGTGATTGCACAGTGGGTGCCATGAGGAAG,76.2 a.u.
AAAGCGGTAATTTGGCACGTGTTTTCACATATCTAT,3480 a.u.
CTGTTGGGTTTTTCTCTCGAGCAAGCCGTTATAATT,66.5 a.u.
GGTTGTTTAACAATAAACGTGTAGAGTACAGGTAGA,97.7 a.u.
AAAGCGGTAATTTGGCATGTGGGTGCAGATATCTAT,110 a.u.
ACTTGGCAGTAAGAACACGTGTCGGTACCGGAGCGG,1260 a.u.
CTTCTGTAAATTTGGCCAGTGGGTGGACGCGCCCCG,59.8 a.u.
CATACCCAACCTTGGCTGGTGGGTGAAGATATTTGT,45.9 a.u.
CTTTCCCGATCTTGATGTGTGGGTGTAGCACATTTG,80.2 a.u.
TAACATCGCATACATCATGTTTAGGAGGCTTGAACA,76 a.u.
AAAGCGGTAATTTGGCACGTGGGTGCAGATATCTAT,1350 a.u.
TAATAGAGATATCACCACGTGTGGAGAATAGATTCA,964 a.u.
CGGGGTTAAGTTTGGTCGGTGGGTGGCTTGCAGCAG,66.8 a.u.
ACTATACTCGTCTGGCACGTGAAGTACATGAACTCA,1270 a.u.
